Published values of several laboratories.
Parts stem from different laboratories: compare values within a part only.

Block 1
Target: RING finger protein unkempt homolog, zinc fingers 1-6, GST-SBP tag (UNK, Homo sapiens, UniProt Q9C0B0, residues 30-357)
UniProt Q9C0B0, sequence (30-357, looked up): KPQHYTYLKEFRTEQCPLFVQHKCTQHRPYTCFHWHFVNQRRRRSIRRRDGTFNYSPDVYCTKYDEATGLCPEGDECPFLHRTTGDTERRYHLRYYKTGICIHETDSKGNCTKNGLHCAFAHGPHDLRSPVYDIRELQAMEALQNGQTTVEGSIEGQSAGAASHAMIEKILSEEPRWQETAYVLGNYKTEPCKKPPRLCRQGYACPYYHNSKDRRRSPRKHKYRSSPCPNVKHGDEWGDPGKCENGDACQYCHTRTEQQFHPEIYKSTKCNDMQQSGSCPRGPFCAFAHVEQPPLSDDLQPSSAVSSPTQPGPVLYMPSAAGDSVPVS
Method: RNA Bind-n-Seq
Form: RNA
Sample: in vitro
Concentration: not given
Notes: RNA with constant flanks, human and mouse sites, ends assumed
Reference: input RNA pool
Reading: higher = stronger binding
Oligonucleotide	bound/input enrichment
GGGAGUUCUACAGUCCGACGAUCGUCAAAUUCAAACUACAGUACUGUGUAAUUAUGUAUAAAGUUUUUUUAUUUAUUUGAAGUUAGACUAGAUAUACGUUUUUAAAUUUAACAUCUGGCUGGACAGUGUUCUAUUAACUCAUUCAACAGAGGAUUGAGCAUCA	3.24 ratio
GGGAGUUCUACAGUCCGACGAUCACCCGUGUAAACAUUAUUCCCCCCAGGAGAAAAUGGUGUUAUUCAAAUGAAUCAUAAUAAAAUAGCCUCUAAACAGUUUCUAAGCGGGAGCCUCCGUGGAACUCAGCGCUCCGCUCCUCCCAACAGAGGAUUGAGCAUCA	1.01 ratio
GGGAGUUCUACAGUCCGACGAUCGAAAUUUUGAAAUGGUAUCUCAACAAGAUAAAGUUUGAUAAAUCUGUUGAUCCAGAAAUCAUAGCUCGAGGGACUGUUGGGUUCUCUGGAGCAGAGUUGGAGAAUCUUGUGAACCAAGCUCAACAGAGGAUUGAGCAUCA	0.278 ratio

Block 2
Target: Sal-like protein 4, full length isoform A (SALL4, Homo sapiens, UniProt Q9UJQ4, residues 1-1053)
UniProt Q9UJQ4, sequence (whole entry, looked up): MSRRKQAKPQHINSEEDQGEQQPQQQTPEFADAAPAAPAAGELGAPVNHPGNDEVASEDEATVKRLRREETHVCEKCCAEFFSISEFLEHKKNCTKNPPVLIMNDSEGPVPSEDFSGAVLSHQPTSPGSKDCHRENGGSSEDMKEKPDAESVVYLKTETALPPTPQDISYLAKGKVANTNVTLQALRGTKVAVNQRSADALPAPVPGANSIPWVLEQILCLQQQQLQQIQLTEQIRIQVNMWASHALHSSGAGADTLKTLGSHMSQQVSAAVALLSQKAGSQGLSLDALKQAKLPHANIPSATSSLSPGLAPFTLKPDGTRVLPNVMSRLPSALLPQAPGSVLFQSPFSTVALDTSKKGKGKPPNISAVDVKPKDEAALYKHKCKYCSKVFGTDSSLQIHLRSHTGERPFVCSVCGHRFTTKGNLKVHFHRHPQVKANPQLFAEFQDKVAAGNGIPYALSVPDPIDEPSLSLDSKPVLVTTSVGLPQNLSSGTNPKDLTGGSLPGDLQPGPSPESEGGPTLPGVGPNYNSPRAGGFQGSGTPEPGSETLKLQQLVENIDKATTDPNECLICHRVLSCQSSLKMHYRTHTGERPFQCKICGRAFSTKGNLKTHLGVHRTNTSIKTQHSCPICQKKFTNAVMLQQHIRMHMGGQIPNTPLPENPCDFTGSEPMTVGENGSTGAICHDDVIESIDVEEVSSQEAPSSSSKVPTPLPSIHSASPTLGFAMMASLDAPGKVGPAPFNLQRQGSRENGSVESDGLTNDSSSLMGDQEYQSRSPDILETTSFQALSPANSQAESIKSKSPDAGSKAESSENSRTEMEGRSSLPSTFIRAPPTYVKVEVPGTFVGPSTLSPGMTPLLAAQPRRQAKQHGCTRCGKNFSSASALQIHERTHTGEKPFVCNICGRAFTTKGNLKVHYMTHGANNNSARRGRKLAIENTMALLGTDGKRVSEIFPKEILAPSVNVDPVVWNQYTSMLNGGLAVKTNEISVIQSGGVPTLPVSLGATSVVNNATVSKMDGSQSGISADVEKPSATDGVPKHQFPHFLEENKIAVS
Method: universal PBM
Form: double-stranded DNA, one strand shown
Sample: in vitro
Concentration: 600 nM
Notes: 8-mer, flanks averaged, mean of replicates
Reading: higher = stronger binding
Oligonucleotide	E-score
TCATGTCA	0.14
GGGTGTCA	-0.143
ACCTAAAT	0.155
ACGCTATG	0.0295
GAGAAGTA	0.16
ACTCAAGA	-0.0575

Block 3
Target: Histone acetyltransferase KAT6A, both winged helices, GST fusion (KAT6A, Homo sapiens, UniProt Q92794, residues 1-181)
Method: protein binding microarray
Form: double-stranded DNA, one strand shown
Sample: in vitro
Concentration: not given
Notes: 8-mer, flanks averaged, mean of 2 arrays, mostly near background
Reference: not given
Reading: higher = stronger binding
Target sequence (chain): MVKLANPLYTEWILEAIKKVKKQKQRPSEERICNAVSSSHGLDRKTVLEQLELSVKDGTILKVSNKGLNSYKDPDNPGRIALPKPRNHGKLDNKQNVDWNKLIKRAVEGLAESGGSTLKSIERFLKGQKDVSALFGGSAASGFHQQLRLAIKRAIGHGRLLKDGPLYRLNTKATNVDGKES
Oligonucleotide	E-score
AAAGGCGT	0.0982
AATTATCC	-0.0465
AAGATACT	-0.0479
GAGACTAC	-0.0381
CCGGTGAA	0.221

Further values, each from its own experiment
Molecule	target	assay	system	conditions	how to read	measurement	value
PhoQ, residues 284 288 289 292 302 303 SLANIV	PhoP, residues 12 14 15 18 19 IFFTR (Escherichia coli, UniProt P23836)	Sort-seq, item: YFP reporter	E. coli	PhoQ-PhoP variant library, added: 10 µM Mg2+	reference: high Mg2+ state, higher = stronger signaling	fold induction	8.66

Repeated from above (block 2):
Oligonucleotide	E-score
ACCTAAAT	0.155
